Measured values gathered from unrelated publications.
Each numbered part is a random draw from the data of one study; scales do not carry over between parts. Positions count from the first letter of the parent shown.

Series 1
Target: Interferon regulatory factor 3, full length, phosphomimetic (IRF3, Homo sapiens, UniProt Q14653, residues 1-427, S386D/S396D/S398D/S402D/T404D/S405D)
Method: protein-binding microarray
Molecule type: double-stranded DNA, one strand shown
Matrix: in vitro
Concentration: 2540 nM top
Setting: 60-bp whole probe
Added: salmon DNA 0.4 mg/ml
Reference: random background probes
Reading: higher = stronger binding
Constant ends, left off below: GCCTAGCAC … GTCTTGATTCGCTTGACGCTGCTG
Construct (chain): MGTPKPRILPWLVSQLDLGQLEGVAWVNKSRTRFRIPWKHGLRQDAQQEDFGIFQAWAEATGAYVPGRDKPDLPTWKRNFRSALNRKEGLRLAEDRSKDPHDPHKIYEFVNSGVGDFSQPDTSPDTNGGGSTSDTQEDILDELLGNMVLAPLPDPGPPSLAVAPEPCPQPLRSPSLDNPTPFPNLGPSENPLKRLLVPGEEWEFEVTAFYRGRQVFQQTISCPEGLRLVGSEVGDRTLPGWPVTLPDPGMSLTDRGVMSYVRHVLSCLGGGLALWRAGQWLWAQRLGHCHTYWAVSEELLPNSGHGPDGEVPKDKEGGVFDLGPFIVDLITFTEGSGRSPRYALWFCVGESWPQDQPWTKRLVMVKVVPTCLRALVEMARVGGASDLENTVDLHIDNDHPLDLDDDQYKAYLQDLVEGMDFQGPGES
`CTGCATTTTTTTTTTCTACTGTGCTAG`: “fitted relative affinity” 0.683 z-score.
`AGCAGGGGCGCAGGTAGGTGGTGCTAG` — result for “fitted relative affinity”: -1.5 z-score.
`TTAGGTCTCCTACTCCTTTAGTGCTAG` — result for “fitted relative affinity”: 1.95 z-score.
Under “fitted relative affinity”, `GACGCTCTCCTTCTCCTGACGTGCTAG` is recorded as 2.7 z-score.
Under “fitted relative affinity”, `TCAAACATCATTTTTCCACTGTGCTAG` is recorded as 0.304 z-score.
For `TGAGGTCTCGGTTTCGGTTAGTGCTAG`, “fitted relative affinity” read 5.36 z-score.
`GACGAACTGAGTATCGGGACGTGCTAG` — result for “fitted relative affinity”: 0.379 z-score.
`GACGATTTCGGGACAGGAGACGTGCTA`: “fitted relative affinity” 1.87 z-score.
`GACGGTTCCAGTTTCGAGACGTGCTAG`: “fitted relative affinity” 4.36 z-score.
Under “fitted relative affinity”, `TGAGGACTGGACTTTCGGTTAGTGCTA` is recorded as 0.889 z-score.
For `TTAGGTCTCGGCATCGGTTAGTGCTAG`, “fitted relative affinity” read -0.556 z-score.
For `TTAGGTCTGGGTCTCGGTTAGTGCTAG`, “fitted relative affinity” read -0.687 z-score.
For `ATAGATATCAGTTTCGATTAGTGCTAG`, “fitted relative affinity” read 4.92 z-score.
For `TTAGGTCTCGAACTGGGTTAGTGCTAG`, “fitted relative affinity” read -0.16 z-score.
`GACAGACTGGGACTGGGGACGTGCTAG`: “fitted relative affinity” -0.684 z-score.
`TCAACGAATTAGAAAGAGCAGTGCTAG` — result for “fitted relative affinity”: 0.177 z-score.
For `GACAAACTGAGACTGGAGACGTGCTAG`, “fitted relative affinity” read -0.309 z-score.
`GACGGTTTCGGGTTTCGGGTCGTGCTA` — result for “fitted relative affinity”: 6.06 z-score.
For `GGACACGGATGCGGTCTGCCGTGCTAG`, “fitted relative affinity” read -0.278 z-score.

Series 2
Target: RING finger protein unkempt homolog, zinc fingers 1-6, GST-SBP tag (UNK, Homo sapiens, UniProt Q9C0B0, residues 30-357)
Sequence of UniProt Q9C0B0 (30-357, looked up): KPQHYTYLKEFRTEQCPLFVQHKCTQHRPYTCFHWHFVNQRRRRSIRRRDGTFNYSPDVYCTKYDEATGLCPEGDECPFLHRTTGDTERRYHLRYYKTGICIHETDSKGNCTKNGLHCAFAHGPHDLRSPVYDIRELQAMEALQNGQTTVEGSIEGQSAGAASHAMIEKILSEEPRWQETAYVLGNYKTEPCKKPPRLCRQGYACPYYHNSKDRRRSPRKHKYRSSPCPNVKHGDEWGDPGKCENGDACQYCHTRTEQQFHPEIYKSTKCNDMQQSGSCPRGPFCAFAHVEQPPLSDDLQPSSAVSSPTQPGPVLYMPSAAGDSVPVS
Method: RNA Bind-n-Seq
Molecule type: RNA
Matrix: in vitro
Concentration: not given
Setting: RNA with constant flanks, human and mouse sites, ends assumed
Reference: input RNA pool
Reading: higher = stronger binding
Constant ends, left off below: GGGAGUUCUACAGUCCGACGAUC … CAACAGAGGAUUGAGCAUCA
For `CCGUUUGACAACACUACCUACAAGAACCUGCAGCAUCAUGACUACAGCACGUACACCUUCUUAGACCUCAACCUCGAACUCUCAAAAUUCAGGAUGCCUCAGCCCUCCUCAGGCCGGGAG`, the bound/input enrichment was 0.405 ratio.
`CCUCCAGAGUUCGGAUUUCCUGAGAAGAUAACAGUGAAACAGCGUUAUCGCCUACUUGGAAAUAGUCUCAACGUGCAUGUAGUAGCUAAACUAAUCAAAAUCUUAUAUGAAUAAUUUUGA` has a bound/input enrichment of 1.4 ratio.
`UCUUGUUUGGAGAGACAUGGGGCAUGUGUCUGCCAAUAGCCAGUUGUUCUCAGUGUGCACUAUGUAGGUCCCCAUCCACUACUUGACCACCUUUAUCAUUUACGGGGAUUUACAUAGAUU` has a bound/input enrichment of 0.256 ratio.
`AUGAAGCCAUUAGACUAAUUGCUUGCCAUCAUGAGCAGAAGCAAACGUGACAACAAUUUUUAUAGUGUAGAGAUUGGAGAUUCUACAUUCACAGUCCUAAAACGAUACCAGAAUUUAAAG` has a bound/input enrichment of 0.487 ratio.
`GGCAAAGGCAAAGGCGGCUCGGGAGAUUCAGCCGUGAAGCAAGUGCAGAUAGAUGGCCUUGUGGUAUUAAAGAUAAUCAAACAUUAUCAAGAAGAAGGACAAGGAACUGAAGUUGUUCAA` has a bound/input enrichment of 0.154 ratio.
With `CCCGAGAUAUGCACCCAAUGUCCAGGGAGCGUGCAAAAUUUGUCAAAAGUGGCCUUUUAUUGUAAAACGACACGAGAGCUAAUGCUGCAUGCCCGUUGCUGCCUGAAUCAGAAGGGCACC` the bound/input enrichment was 0.122 ratio.
`GUUUUUUUUCUCUAUGAAUAAAUGUCACUUUUUGAGGCAAAAAGAAGGAACCGUGAACAUUUUAGACACCCUUUUCUUUGGGGUAGGCUCUGCCCCAGGCGCCGUCUCCUUCCCCCCCCA` has a bound/input enrichment of 1.28 ratio.
With `AUGGCUUGGACGAUAUUAAGGACCGCUCGACGCUGGGAGAGAAACUGGGGGGCAGUGUUGUAGUUUCCCUUGAAGGAAAGCCACUAUAAAAUAAUAGCCAAGUGCCAUUUGAUCUUAAGG` the bound/input enrichment was 0.231 ratio.

Series 3
Target: RNA binding protein fox-1 homolog 2, RRM domain, GST-SBP tag (RBFOX2, Homo sapiens, UniProt O43251-10, residues 100-194)
Method: RNA Bind-n-Seq
Molecule type: RNA
Matrix: in vitro
Concentration: 365 nM
Setting: natural RNA segment, single round, ends assumed
Reference: no-protein control
Reading: higher = stronger binding
Constant ends, left off below: GGGAGUUCUACAGUCCGACGAUC … UGGAAUUCUCGGGUGCCAA
Under “RBNS enrichment (R)”, `CUAUAUUAGAGUGCCAGAAAAGGAGACCUCAGAAGUUAAGCAUAGGUUGCCAAUCUGCUACAAUUAUUUUUCCCACCAAUCUGCUCAAAAUGAUUGUAUAUAGUAUUCUU` is recorded as 0.463.
Under “RBNS enrichment (R)”, `AACAGAACUGUGGUAUUGUUUCGAGAAGAAUUAAGUAAAGUUUAAUCUUUCUGAACUCCUGACUUACUCCAGUACACAAUGCCAAUCGCUGCACCAUUUGAUGUGCAUGU` is recorded as 0.654.
Under “RBNS enrichment (R)”, `CCCUCCCGCCCCGGGUCUGACGGGGGUGCGCCCCCGGCUCGGGCUCACUCCCACUAUCUCUACGGACACAUGCUCUCCGCCUUCCGGGACUAGCCACGGCCCCCAGGGCG` is recorded as 0.554.
Under “RBNS enrichment (R)”, `CCGCCCUGCCCUCCGCCGCUCCGCCUGAGCUCCCCGGUUUGCAGAAUGGAGGAGGGAAGUUGAAGGAGCCACCUCCUCUGUCUACCCACCCGUCCCCUUCACGCCCUUGA` is recorded as 0.403.
Under “RBNS enrichment (R)”, `CACAGAGGUUUCAAGUGGAAAGCCAUUCAUCUUAAAAGCUGAACAGAAAAAUUAAAAAAAAAAAAAACACAUUACAAUCUGGCCUUUUAGAAAAUGAAGCAGUAGAAACA` is recorded as 0.652.
`UUUAUAAAUCAUUGUUAAUUCAGAGAUUUGUACGUGAGAAAACAACAACAAAAUUAGAGACUAUCUAGUUUCUGUAGGUUAUUUUUCCCAAUAAUGUUUCCAGAUCGAAU` — result for “RBNS enrichment (R)”: 0.37.
Under “RBNS enrichment (R)”, `UUGAGACAUCACAUUAUUCAUCCUGUGUCCAAGACUCAGAUAUUCUGCCCCAGUCAAAAUCAUCUUGUGCCAAAAAAUUAGAGGUUUGAUUCAUCGUGUCCCUGUUUGAA` is recorded as 0.441.
Under “RBNS enrichment (R)”, `CCCUCAUUUUCCCCACUCUCAAUGUCCCAGUGUCCAGCGUGACUAAGGACACGGGCCCCCUUCCGUCCUCGGGCUCCCGGUCCCCUCCUAUUUAUGGGGUCUGACCAACU` is recorded as 1.23.

Series 4
Target: Sal-like protein 4, full length isoform B (SALL4, Homo sapiens, UniProt Q9UJQ4-2, residues 1-616)
Method: universal PBM
Molecule type: double-stranded DNA, one strand shown
Matrix: in vitro
Concentration: not given
Setting: 8-mer, flanks averaged, mean of replicates
Reading: higher = stronger binding
Target sequence (chain): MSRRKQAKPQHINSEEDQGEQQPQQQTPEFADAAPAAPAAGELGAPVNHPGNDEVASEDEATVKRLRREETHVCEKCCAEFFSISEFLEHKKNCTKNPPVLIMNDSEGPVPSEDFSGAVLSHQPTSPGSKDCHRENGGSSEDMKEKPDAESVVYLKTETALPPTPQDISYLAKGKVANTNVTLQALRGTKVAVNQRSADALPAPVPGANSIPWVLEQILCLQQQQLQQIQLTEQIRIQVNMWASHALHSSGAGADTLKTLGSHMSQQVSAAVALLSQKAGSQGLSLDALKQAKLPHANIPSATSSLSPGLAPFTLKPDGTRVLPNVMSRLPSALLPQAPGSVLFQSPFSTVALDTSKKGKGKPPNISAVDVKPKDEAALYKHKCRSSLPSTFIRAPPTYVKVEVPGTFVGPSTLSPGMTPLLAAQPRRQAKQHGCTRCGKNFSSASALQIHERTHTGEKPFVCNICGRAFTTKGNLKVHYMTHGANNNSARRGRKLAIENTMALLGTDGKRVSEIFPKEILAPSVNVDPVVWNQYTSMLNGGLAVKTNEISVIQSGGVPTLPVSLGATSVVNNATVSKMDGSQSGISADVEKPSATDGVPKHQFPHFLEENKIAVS
`AAGTGCCT` has an E-score of -0.182.
`CGGAATGA` has an E-score of -0.108.
`GACCGGAA` has an E-score of -0.334.
`TAACACTA` has an E-score of 0.315.
The E-score of `CGTTGGTA` is reported as -0.0148.
`AACCATGG` has an E-score of -0.0709.
For `AGCCGTCA`, the E-score was -0.0276.
`GATGACCA` gave an E-score of -0.0247.
`AACTAATA` gave an E-score of 0.381.
For `CAATCTCG`, the E-score was -0.00852.
For `CGCTTATC`, the E-score was -0.0377.
With `ACATGTGA` the E-score was 0.147.
`AGCTTGCC` gave an E-score of -0.106.
The E-score of `ACCTAGGA` is reported as -0.0193.
`AGACCAAG` gave an E-score of -0.142.
For `AGGGGGGG`, the E-score was -0.335.
The E-score of `GATTGGCA` is reported as -0.0688.
`CGTTATCC` has an E-score of 0.114.
For `AACAAGGG`, the E-score was 0.00721.
`CCCTTTTC` gave an E-score of 0.0265.
`ATTTTGGA` has an E-score of 0.265.
The E-score of `AGCCGTGC` is reported as -0.21.
With `CCAACTAG` the E-score was 0.0637.
`CGGAGTCC` has an E-score of -0.221.
With `AATACCCT` the E-score was -0.0746.

Mixed results
P1: CDAN1 docking peptide (human); RGARSQLFPPTEA
For `P1 P9A`, “normalised enrichment score” read 0.0686 (CCNE1, cyclin fold, Cln2 fusion (human); yeast growth competition, sequencing; yeast; weak parent motif; reference: not given, higher = stronger binding).
`KRNLLNEFDRII` has an enrichment score of 0.365 (Saccharomyces cerevisiae; binding, yeast competitive growth sequencing; peptide, cyclin D2-Cln2 fusion strain; peptide tiling library; direction not given).

Repeated from above (series 4):
For `CAATCTCG`, the E-score was -0.00852.
`AACTAATA` gave an E-score of 0.381.
The E-score of `ACCTAGGA` is reported as -0.0193.
For `AACAAGGG`, the E-score was 0.00721.
`CCCTTTTC` gave an E-score of 0.0265.
The E-score of `AGCCGTGC` is reported as -0.21.
With `CCAACTAG` the E-score was 0.0637.
For `CGCTTATC`, the E-score was -0.0377.
The E-score of `CGTTGGTA` is reported as -0.0148.
